Experimental data gathered from unrelated publications.
Compare with care: the assays were run in different laboratories.
Method: steady-state kinetics
B1: enzyme (Bacillus pumilus, UniProt A8FFI9); chain EARSIAWSVDEFFKNREGTFVIQEVKEKSPWVYNKKRAKERFAPQSTFKVANALIGLQTGAVRDEYDIKYWDGVKREIDNWNRDHTLGSGMRDSVVWYYQAMARDIGEERMNHWVKAIHYGNKDISGGIDQFWLSSTLRISPIEQVRFLKQLYEETLPFDLKNMRTVKRMMVQEEEKHATLYGKTGSGSDIGWYVGFIKHEHKTYILATNIKGTGIEAKDITYRILKKYHLMEASV
B2: 3-hydroxypropionyl-CoA dehydratase (Metallosphaera sedula, UniProt A4YI89); chain MEFETIETKKEGNLFWITLNRPDKLNALNAKLLEELDRAVSQAESDPEIRVIIITGKGKAFCAGADITQFNQLTPAEAWKFSKKGREIMDKIEALSKPTIAMINGYALGGGLELALACDIRIAAEEAQLGLPEINLGIYPGYGGTQRLTRVIGKGRALEMMMTGDRIPGKDAEKYGLVNRVVPLANLEQETRKLAEKIAKKSPISLALIKEVVNRGLDSPLLSGLALESVGWGVVFSTEDKKEGVSAFLEKREPTFKGK
B3: cyc1 F95M (Streptomyces coelicolor, UniProt Q9K499); chain MHAFPHGTTATPTAIAVPPSLRLPVIEAAFPRQLHPYWPKLQETTRTWLLEKRLMPADKVEEYADGLCYTDLMAGYYLGAPDEVLQAIADYSAWMFVWDDRHDRDIVHGRAGAWRRLRGLLHTALDSPGDHLHHEDTLVAGFADSVRRLYAFLPATWNARFARHFHTVIEAYDREFHNRTRGIVPGVEEYLELRRLTFAHWIWTDLLEPSSGCELPDAVRKHPAYRRAALLSQEFAAWYNDLCSLPKEIAGDEVHNLGISLITHHSLTLEEAIGEVRRRVEECITEFLAVERDALRFADELADGTVRGKELSGAVRANVGNMRNWFSSVYWFHHESGRYMVDSWDDRSTPPYVNNEAAGEK
B4: protein G95D/P94L (Streptomyces coelicolor, UniProt P16544); chain MATQDSEVALVTGATSGIGLEIARRLGKEGLRVFVCARGEEGLRTTLKELREAGVEADGRTCDVRSVPEIEALVAAVVERYGPVDVLVNNAGRLDGGATAELADELWLDVVETNLTGVFRVTKQVLKAGGMLERGTGRIVNIASTGGKQGVVHAAPYSASKHGVVGFTKALGLELARTGITVNAVCPGFVETPMAASVREHYSDIWEVSTEEAFDRITARVPIGRYVQPSEVAEMVAYLIGPGAAAVTAQALNVCGGLGNY
B5: CYP2C19 (Homo sapiens, UniProt P33261); chain MDPFVVLVLCLSCLLLLSIWRQSSGRGKLPPGPTPLPVIGNILQIDIKDVSKSLTNLSKIYGPVFTLYFGLERMVVLHGYEVVKEALIDLGEEFSGRGHFPLAERANRGFGIVFSNGKRWKEIRRFSLMTLRNFGMGKRSIEDRVQEEARCLVEELRKTKASPCDPTFILGCAPCNVICSIIFQKRFDYKDQQFLNLMEKLNENIRIVSTPWIQICNNFPTIIDYFPGTHNKLLKNLAFMESDILEKVKEHQESMDINNPRDFIDCFLIKMEKEKQNQQSEFTIENLVITAADLLGAGTETTSTTLRYALLLLLKHPEVTAKVQEEIERVIGRNRSPCMQDRGHMPYTDAVVHEVQRYIDLIPTSLPHAVTCDVKFRNYLIPKGTTILTSLTSVLHDNKEFPNPEMFDPRHFLDEGGNFKKSNYFMPFSAGKRICVGEGLARMELFLFLTFILQNFNLKSLIDPKDLDTTPVVNGFASVPPFYQLCFIPV
B6: protein (Streptomyces coelicolor, UniProt Q9K464); chain MAAYLCAPAVIHGEHSVETREIVEEVRGRHPHAPWAPRIDGIAASTGIESRGWMLPLEAAVAPGGGGDLGAAREALVRDGFTEQDANRAIAALKAVPASQTVQERTAPAWEAVQAYGERAARGALQIAGLDVADVDCLITSNSTTPALPGLDVALANRLPLRGDTMLLPATQWACVAGTRSLALAADLVAADPDRVVLVVISEALSTTYQPADDTLESLIVRLLFADTAVAAVVTGRPRPESVLRLDAAWHHTLPGTRDLHRLETRADGTHFVMDRRGPRAVQETVTAMWEWLRVRYEDDPSSWHPDVLLAHPGGTRVLEYMEQTMPDEWPSGLLSYSRDSYTSGNRGGAAVFDILRRAHDAGQKTGSRAVLYAAAPGLTATALEGEWL
B7: enzyme (Thermus thermophilus, UniProt Q72J81); chain MEVKRIGVVGAGQMGSGIAQVAASAGYEVVLVDVAESFLERGLAAIRRSLGKFLEKGKITQEAHDEALGRIRTSLSLEDLKDADLIVEAIVEDEGEKRRLFERLGALAKPEAILASNTSSIPITALARYSGRPERFIGMHFFNPVPLMQLVEVIRGELTSEATRDVVVEVARRMGKTPLEVQDYPGFISNRLLMPMINEAIEALREGVATKEAIDGIMRLGMNHPMGPLELADFIGLDTCLAIMEVLHRGFGDDKYRPSPLLRRMVQAGLLGRKAGRGFYTYDEKGNKVG
B8: UGT1A9 (Homo sapiens, UniProt O60656); chain GKLLVVPMDGSHWFTMRSVVEKLILRGHEVVVVMPEVSWQLGRSLNCTVKTYSTSYTLEDLDREFKAFAHAQWKAQVRSIYSLLMGSYNDIFDLFFSNCRSLFKDKKLVEYLKESSFDAVFLDPFDNCGLIVAKYFSLPSVVFARGILCHYLEEGAQCPAPLSYVPRILLGFSDAMTFKERVRNHIMHLEEHLLCHRFFKNALEIASEILQTPVTEYDLYSHTSIWLLRTDFVLDYPKPVMPNMIFIGGINCHQGKPLPMEFEAYINASGEHGIVVFSLGSMVSEIPEKKAMAIADALGKIPQTVLWRYTGTRPSNLANNTILVKWLPQNDLLGHPMTRAFITHAGSHGVYESICNGVPMVMMPLFGDQMDNAKRMETKGAGVTLNVLEMTSEDLENALKAVINDKSYKENIMRLSSLHKDRPVEPLDLAVFWVEFVMRHKGAPHLRPAAHDLTWYQYHSLDVIGFLLAVVLTVAFITFKCCAYGYRKCLGKKGRVKKAHKSKTH
B9: putA N641A (Bradyrhizobium diazoefficiens, UniProt Q89E26); chain MPNIPPPFTAPYAPDDAEIAARLLPASHLSPPQEARIHRTATRLIEAIRKRDDRLGGVEDMLREFALSTKEGLALMVLAEALLRVPDARTADQFIEDKLGEGDFIHHETKSTAFLVNASAWALGLSARVIQPGETPDGTIGRLVKRLGAPAVRTATRQAMRLMGNHFVLGETIEQALERGKPRSGQKTRYSFDMLGEGARTAADARRYFDAYASAIETIGKAAGNHALPDRPGISVKLSALHPRFEAISRARVMVELVPQLLDLAQRAKAHDLNFTVDAEEADRLELSLDVIAATLADPSLKGWDGFGLAIQAYQKRASAVIDYVDALARAHDRKLMVRLVKGAYWDTEIKRAQERGLDGYPVFTRKAMTDLNYVACASKLLALRPRIFPQFATHNALTVATVLEMAEGSSGFEFQRLHGMGEALYEQLAKDHADIAYRTYAPVGSHRDLLAYLVRRLLENGANSSFVAQAADYRVPVPALLQRPADAIVRPQAAAHPRIPLPCDLFAPERRNSRGVEFGARTALDQLLTDVKAETGDLKPIADATPDQAHAAVAAARAGFAGWSRTPAGIRAAALEQAAHLLESRSAHFIALLQREGGKTLDDALSELREAADFCRYYAAQGRKLFGSETAMPGPTGESAALTMRGRGVFVAISPWNFPLAIFLGQVTAALMAGNSVVAKPAEQTPRIAREAVALLHEAGIPKSALYLVTGDGRIGAALTAHPDIAGVVFTGSTEVARSINRALAAKDGPIVPLIAETGGINAMIADATALPEQVADDVVTSAFRSAGQRCSALRLLFVQEDVADRMIEMVAGAARELKIGDPSDVATHVGPVIDVEAKQRLDAHIARMKTEARLHFAGPAPEGCFVAPHIFELTEAGQLTEEVFGPILHVVRYRPENLERVLRAIERTGYGLTLGVHSRIDDSIEAIIDRVQVGNIYVNRNMIGAVVGVQPFGGNGLSGTGPKAGGPHYLARFATEQTVTINTAAAGGNAALLAGEE
B10: GTPBP3 E159V (Homo sapiens, UniProt Q969Y2); chain TRRSSGAPAPGSGATIFALSSGQGRCGIAVIRTSGPASGHALRILTAPRDLPLARHASLRLLSDPRSGEPLDRALVLWFPGPQSFTGEDCVEFHVHGGPAVVSGVLQALGSVPGLRPAEAGEFTRRAFANGKLNLTEVVGLADLIHAETEAQRRQALRQLDGELGHLCRGWAETLTKALAHVEAYIDFGEDDNLEEGVLEQADIEVRALQVALGAHLRDARRGQRLRSGVHVVVTGPPNAGKSSLVNLLSRKPVSIVSPEPGTTRDVLETPVDLAGFPVLLSDTAGLREGVGPVEQEGVRRARERLEQADLILAMLDASDLASPSSCNFLATVVASVGAQSPSDSSQRLLLVLNKSDLLSPEGPGPGPDLPPHLLLSCLTGEGLDGLLEALRKELAAVCGDPSTDPPLLTRARHQHHLQGCLDALGHYKQSKDLALAAEALRVARGHLTRLTGGGGTEEILDIIFQDFCVGK
B11: ERAP1 (Homo sapiens, UniProt Q9NZ08); chain MVFLPLKWSLATMSFLLSSLLALLTVSTPSWCQSTEASPKRSDGTPFPWNKIRLPEYVIPVHYDLLIHANLTTLTFWGTTKVEITASQPTSTIILHSHHLQISRATLRKGAGERLSEEPLQVLEHPRQEQIALLAPEPLLVGLPYTVVIHYAGNLSETFHGFYKSTYRTKEGELRILASTQFEPTAARMAFPCFDEPAFKASFSIKIRREPRHLAISNMPLVKSVTVAEGLIEDHFDVTVKMSTYLVAFIISDFESVSKITKSGVKVSVYAVPDKINQADYALDAAVTLLEFYEDYFSIPYPLPKQDLAAIPDFQSGAMENWGLTTYRESALLFDAEKSSASSKLGITMTVAHELAHQWFGNLVTMEWWNDLWLNEGFAKFMEFVSVSVTHPELKVGDYFFGKCFDAMEVDALNSSHPVSTPVENPAQIREMFDDVSYDKGACILNMLREYLSADAFKSGIVQYLQKHSYKNTKNEDLWDSMASICPTDGVKGMDGFCSRSQHSSSSSHWHQEGVDVKTMMNTWTLQKGFPLITITVRGRNVHMKQEHYMKGSDGAPDTGYLWHVPLTFITSKSDMVHRFLLKTKTDVLILPEEVEWIKFNVGMNGYYIVHYEDDGWDSLTGLLKGTHTAVSSNDRASLINNAFQLVSIGKLSIEKALDLSLYLKHETEIMPVFQGLNELIPMYKLMEKRDMNEVETQFKAFLIRLLRDLIDKQTWTDEGSVSERMLRSQLLLLACVHNYQPCVQRAEGYFRKWKESNGNLSLPVDVTLAVFAVGAQSTEGWDFLYSKYQFSLSSTEKSQIEFALCRTQNKEKLQWLLDESFKGDKIKTQEFPQILTLIGRNPVGYPLAWQFLRKNWNKLVQKFELGSSSIAHMVMGTTNQFSTRTRLEEVKGFFSSLKENGSQLRCVQQTIETIEENIGWMDKNFDKIRVWLQSEKLEHDPEADATG

For `B1 (enzyme)`, the Km was 4 µM (Cc1onc(-c2ccccc2)c1C(=O)N[C@@H]1C(=O)N2[C@@H]1SC(C)(C)[C@@H]2C(=O)O; pH 7).
`B2` has a Km of 25.1 µM (CC(C)(COP(=O)(O)OP(=O)(O)OC[C@H]1O[C@@H](n2cnc3c(N)ncnc32)[C@H](O)[C@@H]1OP(=O)(O)O)[C@@H](O)C(=O)NCCC(=O)NCCSC(=O)CCO; pH 6.5, 65 °C, substrate made in situ, with: ATP, CoA, NADPH).
`B3 (cyc1 F95M)` has a Km of 0.275 µM (CC(C)=CCC/C(C)=C/CC/C(C)=C/CO[P@@](=O)(O)OP(=O)(O)O; pH 6.5, 30 °C, with: MgCl2 10 mM).
With `B4 (protein G95D/P94L)` the Km was 8700 µM (O[C@H]1CCCc2ccccc21; pH 7.4, phosphate 400 mM, NADPH 250 µM printed, with: NADP+, reverse reaction).
With `B5 (CYP2C19)` the Km was 405 µM (CN1C(=O)CC[C@H]1c1cccnc1; microsomes; pH 6.7, cotinine to COX, not purified).
`B6 (protein)` has a Km of 12.1 µM (CC(C)C(=O)CC(=O)SCCNC(=O)CCNC(=O)[C@H](O)C(C)(C)COP(=O)(O)OP(=O)(O)OC[C@H]1O[C@@H](n2cnc3c(N)ncnc32)[C@H](O)[C@@H]1OP(=O)(O)O; pH 7.8, 30 °C, NaCl 150 mM, with: methylmalonyl-CoA 1.0 mM).
The Km of `B7 (enzyme)` is reported as 33.4 µM (NC(=O)C1=CN([C@@H]2O[C@H](COP(=O)(O)OP(=O)(O)OC[C@H]3O[C@@H](n4cnc5c(N)ncnc54)[C@H](O)[C@@H]3O)[C@@H](O)[C@H]2O)C=CC1; pH 7, 65 °C, cofactor varied).
With `B8 (UGT1A9)` the Km was 4.49 µM (O=c1cc(-c2ccccc2)oc2cc(O)c(O)cc12; pH 7.4, 37 °C).
For `B9 (putA N641A)`, the Km was 100000 µM (O=C(O)[C@@H]1CCCN1; pH 8, 23 °C).
For `alanine aminopeptidase (Neisseria meningitidis, UniProt Q9JYV4)`, the Km was 60.4 µM (N=C(NCCC[C@H](N)C(=O)Nc1ccc2c(CC(N)=O)cc(=O)oc2c1)N[N+](=O)[O-]; pH 7.5, 37 °C).
For `B10 (GTPBP3 E159V)`, the Km was 26.1 µM (Nc1nc2c(ncn2[C@@H]2O[C@H](COP(=O)(O)OP(=O)(O)OP(=O)(O)O)[C@@H](O)[C@H]2O)c(=O)[nH]1; pH 8, 37 °C, KCl 300 mM).
`B11 (ERAP1)` gave a Km of 30 µM (CC(C)C[C@H](NC(=O)CNC(=O)[C@H](CCC(=O)O)NC(=O)[C@H](Cc1ccccc1)NC(=O)[C@H](CCCNC(=N)N)NC(=O)[C@H](CCCCN)NC(=O)[C@@H](N)Cc1ccc(O)cc1)C(=O)N[C@H](C(=O)N[C@@H](CCC(N)=O)C(=O)N[C@@H](CCCNC(=N)N)C(=O)O)[C@@H](C)O; 25 °C).

For quick reference, copied from above:
`B3 (cyc1 F95M)` has a Km of 0.275 µM (CC(C)=CCC/C(C)=C/CC/C(C)=C/CO[P@@](=O)(O)OP(=O)(O)O; pH 6.5, 30 °C, with: MgCl2 10 mM).
For `B9 (putA N641A)`, the Km was 100000 µM (O=C(O)[C@@H]1CCCN1; pH 8, 23 °C).
